{"data": "Assay results of several laboratories", "note": "Every numbered part comes from another study and shows a few of its results, in no order."}
{"data": "Sample 1", "target": "Sal-like protein 4, full length isoform B (SALL4, Homo sapiens, UniProt Q9UJQ4-2, residues 1-616)", "technique": "universal PBM", "form": "double-stranded DNA, one strand shown", "medium": "in vitro", "concentration": "not given", "setting": "8-mer, flanks averaged, mean of replicates", "reading": "higher = stronger binding"}
{"Oligonucleotide": "CCTAAATA", "E-score": 0.194}
{"Oligonucleotide": "CCCCGGTC", "E-score": -0.327}
{"Oligonucleotide": "CCGGAGAC", "E-score": -0.212}
{"Oligonucleotide": "CATTCCGC", "E-score": -0.238}
{"Oligonucleotide": "GTTTGGAA", "E-score": 0.088}
{"Oligonucleotide": "CAAGACCA", "E-score": -0.0491}
{"Oligonucleotide": "CAATACGA", "E-score": 0.252}
{"Oligonucleotide": "CACAACTA", "E-score": 0.132}
{"Oligonucleotide": "ATCGAGTC", "E-score": 0.0627}
{"Oligonucleotide": "AATCTCCC", "E-score": -0.132}
{"Oligonucleotide": "AGAAAAAA", "E-score": 0.226}
{"Oligonucleotide": "ATACGCTC", "E-score": 0.157}
{"Oligonucleotide": "TCTGCAGA", "E-score": 0.0055}
{"Oligonucleotide": "GAAAGTTA", "E-score": 0.148}
{"Oligonucleotide": "AGAACGCT", "E-score": -0.0726}
{"Oligonucleotide": "CGGCTCAC", "E-score": -0.15}
{"Oligonucleotide": "CACATAGG", "E-score": 0.0146}
{"Oligonucleotide": "CCCTAAAC", "E-score": -0.043}
{"Oligonucleotide": "TAGAGTGA", "E-score": 0.0448}
{"Oligonucleotide": "GACGCTTA", "E-score": -0.0745}
{"Oligonucleotide": "AGACTACC", "E-score": -0.00209}
{"Oligonucleotide": "TCGGGCAA", "E-score": -0.125}
{"Oligonucleotide": "AACCAGTA", "E-score": 0.0155}
{"Oligonucleotide": "AGAATTCT", "E-score": 0.108}
{"Oligonucleotide": "TCATAGGA", "E-score": 0.256}
{"data": "Sample 2", "target": "Hepatocyte nuclear factor 3-alpha (Foxa1, Mus musculus, UniProt P35582, residues 1-468, full length assumed)", "technique": "EMSA with sequencing", "form": "double-stranded DNA, one strand shown", "medium": "in vitro", "concentration": "10 and 20 nM", "setting": "whole designed probe, mean of two concentrations, ends assumed", "reference": "negative control set to 0", "reading": "higher = stronger binding", "Target sequence (chain)": "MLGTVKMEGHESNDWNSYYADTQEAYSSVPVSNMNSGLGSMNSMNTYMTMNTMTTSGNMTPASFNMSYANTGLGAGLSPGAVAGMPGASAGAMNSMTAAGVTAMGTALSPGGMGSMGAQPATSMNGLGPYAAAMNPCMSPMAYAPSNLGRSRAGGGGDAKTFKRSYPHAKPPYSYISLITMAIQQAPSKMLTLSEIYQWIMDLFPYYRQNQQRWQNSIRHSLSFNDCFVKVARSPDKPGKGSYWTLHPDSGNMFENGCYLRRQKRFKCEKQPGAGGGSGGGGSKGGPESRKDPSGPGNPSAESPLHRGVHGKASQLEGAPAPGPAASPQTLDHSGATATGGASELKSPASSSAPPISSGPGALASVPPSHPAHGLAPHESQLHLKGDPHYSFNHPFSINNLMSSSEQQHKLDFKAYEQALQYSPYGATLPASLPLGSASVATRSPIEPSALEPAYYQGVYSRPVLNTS"}
{"Oligonucleotide": "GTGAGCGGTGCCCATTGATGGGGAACAAATGCCAACGTGTATTGGACTTCCCTCTAGTGGTTACATGCAAAATGACAAGCCTATAGTTCCCAAACAGAATGTTGTGTTGTTCTCTACACAGATTACTTAGCAATCAGCAAAATTACTGTGCTTCACTCCATGTACCTTCCATTCACACACTTGGCAAACACCATATCTTCCATGATATTCTCCTGTATCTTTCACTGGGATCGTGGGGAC", "normalised bound fraction [ratio]": 0.0814}
{"Oligonucleotide": "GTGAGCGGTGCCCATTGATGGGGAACAGGTGAATTGGCTGCTTCCATCCTGGCTTGGAACTTCAGACATAGAAGCCTTGGGACTTTCTCAGGACTTTCTCCTGACTCATGCCAGATGCTTGTTTGCTGAATCTCTGTGGATCACGTGACCTTAGCCAGGGATGTTGGTGAAACTGTGTGTTGGTCTAGGTACCTAGCCCATGCTAGGTGCTCATCGAATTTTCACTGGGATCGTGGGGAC", "normalised bound fraction [ratio]": 0.0744}
{"Oligonucleotide": "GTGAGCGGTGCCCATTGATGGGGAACTCAGGTTGCAGTGAGCTCTGATCGTGCCACTGCACTCCAGCCTGTGACACAGAGCAAGGGCCTGTCTCTAAAAACAAAACAAAACAAAGCAAAACAAACATGAGAAGTGCTGATTGTTACCTTGCAAAGAGGTTTCATTCGGCAGCAAGTTGAAATTATCTACTGGTTTGTACAACAGCTAGCACTTCCTCTTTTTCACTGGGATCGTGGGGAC", "normalised bound fraction [ratio]": 0.563}
{"Oligonucleotide": "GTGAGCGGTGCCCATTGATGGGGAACAGGCCTTATCACTGTGCAAACACTTCCTCTTTCCCCAGTGCTGGTTCTCACACAATTGGTAATCAGTGTAAACTTCCTCTGACAATTTACTGAGCAAACATTTACCATACAACTGCCCTATGTAGGGCTCTGTGCTAAGGCCCATGGGGAACCCAAGCCTGGTCTCCACCTTGGGGCATCTCGAGTCTGGTAGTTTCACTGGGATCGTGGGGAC", "normalised bound fraction [ratio]": 0.415}
{"Oligonucleotide": "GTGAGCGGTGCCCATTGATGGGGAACCACTGTAAAAACTTAGTCAATTTTTTTTTCTAAGAAAGAAAGTAAAGATAATAAAGACCTGTTACCCAATTCTGAGCAGAAGCTGAGTCACTGTGTAAACACACTTCAACTACCGGCCTGCTTTCTCAAGGGTGAATCAATTGCTTTGAACAATGAATGTACTGAGTTCTTTCCAATTTTATCCTGCAGAATATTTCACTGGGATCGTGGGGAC", "normalised bound fraction [ratio]": 0.397}
{"data": "Sample 3", "target": "RNA binding protein fox-1 homolog 2, RRM domain, GST-SBP tag (RBFOX2, Homo sapiens, UniProt O43251-10, residues 100-194)", "technique": "RNA Bind-n-Seq", "form": "RNA", "medium": "in vitro", "concentration": "365 nM", "setting": "natural RNA segment, single round, ends assumed", "reference": "no-protein control", "reading": "higher = stronger binding", "Construct (chain)": "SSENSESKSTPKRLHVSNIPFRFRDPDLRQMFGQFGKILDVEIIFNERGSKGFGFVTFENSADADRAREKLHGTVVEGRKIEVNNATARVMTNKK"}
{"Oligonucleotide": "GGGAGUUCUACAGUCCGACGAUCGAAGGCCAGGAGCCCUGUGCUCUUGACAUCACUGUACUCCCUCUCCCUCCCCGCAACCCUGCCCCACCUUGCAUCCAGGGUAUGGUGUAAAUAAACCUGUGUUGCCAUGGUGGAAUUCUCGGGUGCCAA", "RBNS enrichment (R)": 0.537}
{"Oligonucleotide": "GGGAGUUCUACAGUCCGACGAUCAAACAAUGGUAAGCACUGAAGUAUAAUAAGUAACCUUUGGUACAGCAGGUUUGCUGCAGUGUUUUUUUCUGUCCACAUGCAAAUUUUGGAUUCUAUCCCAGACCCAGGUUUGGAAUUCUCGGGUGCCAA", "RBNS enrichment (R)": 0.309}
{"Oligonucleotide": "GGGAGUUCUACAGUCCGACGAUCGGCCUUUGAGAAAGGGUAGAAUUCUGGCUGGUAGAGCAGGUGAGAUGGGACAUUCCAAAGAACAGCCUGAGCCAAGGCCUAGUGGUAGUAAGAAUCUAGCAAGAAUUGAGUGGAAUUCUCGGGUGCCAA", "RBNS enrichment (R)": 0.512}
{"Oligonucleotide": "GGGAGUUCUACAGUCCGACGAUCCCCCCAGUUCAAGUGAUUCUUCUGCCUCGGCCUCCUGAGUAACUGGGACUACAGGCGCCUACCACCACGCCCAGCUAAGUUUUGUAUUUUUAGUAGAGUCAGGGUUUCACUGGAAUUCUCGGGUGCCAA", "RBNS enrichment (R)": 0.793}
{"Oligonucleotide": "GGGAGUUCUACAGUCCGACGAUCCUUUGGAAAUUGAGGACUUUUUUUUUUCCUUUGAAAGUAUGGCAUCUGAAGAACACAGUAUCAUGACUCGGGUGGAAAGGGAGGCAGAAGCCAUUUUUCUUUUAGAUGAAUGGAAUUCUCGGGUGCCAA", "RBNS enrichment (R)": 0.43}
{"Oligonucleotide": "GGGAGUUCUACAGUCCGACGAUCAUAAGUUGUCCUUAGUCUCUUGUGCUGAUUCACUGUAUAAGCAUGAUCCUGGUAAUGCACUUUGGAUGGGAAGAAAAUGUACGUGCUUUUCAGAGGGGCUCUGAACAGAAUGGAAUUCUCGGGUGCCAA", "RBNS enrichment (R)": 17.4}
{"Oligonucleotide": "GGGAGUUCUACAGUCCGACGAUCGUGUUUGCUCUUUUCCAUGCCCAUGCAACCCAGAUUGGGGUGGAGCAGGAAGGAGCUCUUUUCUGUUCCCAAGCCUCAGAACUCUUGAGCUGUGGCUUACUUGCUGUCUUUGGAAUUCUCGGGUGCCAA", "RBNS enrichment (R)": 0.268}
{"Oligonucleotide": "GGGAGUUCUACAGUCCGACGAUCUAGGGGCCAGAGCACCUCUAGGCUGAUUCCUCACCUUUUGGGUCUGAGGGCAGCUGCUCUCCCAGCAUGUGCUGGCCACUCCAUCCCAAAAGCCCCCAUCAGAACUGCUGUGGAAUUCUCGGGUGCCAA", "RBNS enrichment (R)": 1.38}
{"data": "Sample 4", "target": "Interferon regulatory factor 3, full length, phosphomimetic (IRF3, Homo sapiens, UniProt Q14653, residues 1-427, S386D/S396D/S398D/S402D/T404D/S405D)", "technique": "protein-binding microarray", "form": "double-stranded DNA, one strand shown", "medium": "in vitro", "concentration": "2540 nM top", "setting": "60-bp whole probe", "added": "salmon DNA 0.4 mg/ml", "reference": "random background probes", "reading": "higher = stronger binding", "all sequences stand within": "GCCTAGCAC … GTCTTGATTCGCTTGACGCTGCTG", "Construct (chain)": "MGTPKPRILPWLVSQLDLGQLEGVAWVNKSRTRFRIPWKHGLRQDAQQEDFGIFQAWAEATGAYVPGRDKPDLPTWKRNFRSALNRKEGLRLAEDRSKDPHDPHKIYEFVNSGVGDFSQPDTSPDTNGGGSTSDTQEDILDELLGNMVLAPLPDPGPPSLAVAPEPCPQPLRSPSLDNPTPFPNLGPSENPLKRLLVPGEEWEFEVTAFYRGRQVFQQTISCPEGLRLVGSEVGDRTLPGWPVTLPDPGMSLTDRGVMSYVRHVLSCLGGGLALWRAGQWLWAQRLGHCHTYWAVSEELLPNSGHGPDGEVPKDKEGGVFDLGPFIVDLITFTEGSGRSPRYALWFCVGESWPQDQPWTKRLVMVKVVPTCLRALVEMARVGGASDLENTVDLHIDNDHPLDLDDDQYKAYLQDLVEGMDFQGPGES"}
{"Oligonucleotide": "TACTCTACAGGGTTTCACTTTGTGCTA", "fitted relative affinity": "1.82 z-score"}
{"Oligonucleotide": "TAAGGTATCGGTTTCGGTTAGTGCTAG", "fitted relative affinity": "8.72 z-score"}
{"Oligonucleotide": "TTAGGTATCCTTCTCCTGTAGTGCTAG", "fitted relative affinity": "7.3 z-score"}
{"Oligonucleotide": "TTAGGTATCCTTATTCTTTAGTGCTAG", "fitted relative affinity": "4.91 z-score"}
{"Oligonucleotide": "GGCGGTATCGGGTATCGGGACGTGCTA", "fitted relative affinity": "1.74 z-score"}
{"Oligonucleotide": "TTAGATATCAGACTGGATTGGTGCTAG", "fitted relative affinity": "-0.0829 z-score"}
{"Oligonucleotide": "TCACCATTAAATTTTAAACTGTGCTAG", "fitted relative affinity": "0.136 z-score"}
{"Oligonucleotide": "TTAGATTTCGCGACTGGATTAGTGCTA", "fitted relative affinity": "0.123 z-score"}
{"Oligonucleotide": "TTAGATTTCCGTATCGATTAGTGCTAG", "fitted relative affinity": "3.57 z-score"}
{"Oligonucleotide": "GACGATCTCCGTCTCGAGACGTGCTAG", "fitted relative affinity": "1.22 z-score"}
{"Oligonucleotide": "TGAGATATCAGTATCGATTAGTGCTAG", "fitted relative affinity": "1.79 z-score"}
{"Oligonucleotide": "TTGTTTCCATTTTCTGAATGCGTGCTA", "fitted relative affinity": "9.28 z-score"}
{"Oligonucleotide": "GACGATCTCAGACTGGAGACGTGCTAG", "fitted relative affinity": "0.248 z-score"}
{"Oligonucleotide": "TTAGGTATGCTACTGCTTTAGTGCTAG", "fitted relative affinity": "-0.685 z-score"}
{"Oligonucleotide": "TCATTTGTTTTTTTCTAACTGTGCTAG", "fitted relative affinity": "1.63 z-score"}
{"Oligonucleotide": "GACGGTTTCGGGTATCTGGACGTGCTA", "fitted relative affinity": "4.39 z-score"}
{"Oligonucleotide": "GACGGACTGGGGTATCGGAACGTGCTA", "fitted relative affinity": "0.428 z-score"}
{"Oligonucleotide": "CCTCACTTCCTTCTGCCTGTGTGCTAG", "fitted relative affinity": "0.571 z-score"}
{"Oligonucleotide": "GACGATTTCAGACTGGAGGCGTGCTAG", "fitted relative affinity": "0.928 z-score"}
{"note": "A few entries again (sample 1):"}
{"Oligonucleotide": "GACGCTTA", "E-score": -0.0745}
{"Oligonucleotide": "AGACTACC", "E-score": -0.00209}
{"Oligonucleotide": "TCGGGCAA", "E-score": -0.125}
{"Oligonucleotide": "AACCAGTA", "E-score": 0.0155}
